{"data": "Experimental data of several laboratories", "note": "A part holds a random share of what one study measured."}
{"data": "Study 1", "target": "Interferon regulatory factor 3, full length, phosphomimetic (IRF3, Homo sapiens, UniProt Q14653, residues 1-427, S386D/S396D/S398D/S402D/T404D/S405D)", "method": "protein-binding microarray", "molecule type": "double-stranded DNA, one strand shown", "medium": "in vitro", "tested at": "2540 nM top", "notes": "60-bp whole probe", "together with": "salmon DNA 0.4 mg/ml", "relative to": "random background probes", "direction": "higher = stronger binding", "all sequences stand within": "GCCTAGCAC … GTCTTGATTCGCTTGACGCTGCTG", "Target sequence (chain)": "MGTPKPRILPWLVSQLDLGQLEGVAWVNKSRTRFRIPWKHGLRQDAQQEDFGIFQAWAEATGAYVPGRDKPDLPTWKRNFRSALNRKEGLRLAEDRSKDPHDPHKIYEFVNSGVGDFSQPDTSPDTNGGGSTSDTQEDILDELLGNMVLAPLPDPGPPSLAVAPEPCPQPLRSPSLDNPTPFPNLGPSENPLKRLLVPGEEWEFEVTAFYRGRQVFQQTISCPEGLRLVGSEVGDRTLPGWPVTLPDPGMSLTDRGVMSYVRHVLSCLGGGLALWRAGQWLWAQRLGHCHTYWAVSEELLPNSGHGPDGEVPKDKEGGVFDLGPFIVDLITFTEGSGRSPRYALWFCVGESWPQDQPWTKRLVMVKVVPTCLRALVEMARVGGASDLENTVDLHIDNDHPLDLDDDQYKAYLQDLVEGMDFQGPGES"}
{"Oligonucleotide": "TTAGGTCTCCGTTTCCTTTAGTGCTAG", "fitted relative affinity": "4.56 z-score"}
{"Oligonucleotide": "TGAGCTACAGATGAGGCTCGGTGCTAG", "fitted relative affinity": "-0.503 z-score"}
{"Oligonucleotide": "TCAACCTTCGAGTCTGCAACTGTGCTA", "fitted relative affinity": "-0.18 z-score"}
{"Oligonucleotide": "TGAGGACTGGACACTGGGTTAGTGCTA", "fitted relative affinity": "-1.2 z-score"}
{"Oligonucleotide": "TCATACCTCATCTTCCTCACTGTGCTA", "fitted relative affinity": "0.769 z-score"}
{"Oligonucleotide": "GACGGACTGGGGACTTGGGACGTGCTA", "fitted relative affinity": "-0.94 z-score"}
{"Oligonucleotide": "GGCGGTTTCGACTTTCGGGACGTGCTA", "fitted relative affinity": "3.99 z-score"}
{"data": "Study 2", "target": "Histone acetyltransferase KAT6A, winged helix 2, GST fusion (KAT6A, Homo sapiens, UniProt Q92794, residues 85-181)", "method": "protein binding microarray", "molecule type": "double-stranded DNA, one strand shown", "medium": "in vitro", "tested at": "not given", "notes": "8-mer, flanks averaged, mean of 2 arrays, mostly near background", "relative to": "not given", "direction": "higher = stronger binding", "Target sequence (chain)": "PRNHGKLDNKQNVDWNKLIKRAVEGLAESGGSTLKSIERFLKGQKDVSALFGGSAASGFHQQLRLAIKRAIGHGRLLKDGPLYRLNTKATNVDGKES"}
{"Oligonucleotide": "ACTGATAT", "E-score": 0.0182}
{"Oligonucleotide": "CTATATAC", "E-score": -0.0261}
{"Oligonucleotide": "AACTGCTC", "E-score": -0.0572}
{"Oligonucleotide": "CAAGTGGC", "E-score": -0.0491}
{"Oligonucleotide": "GCTAGACC", "E-score": -0.127}
{"Oligonucleotide": "CGAAAGGC", "E-score": 0.105}
{"Oligonucleotide": "CTGTTCGA", "E-score": 0.0556}
{"Oligonucleotide": "TCGCCAAA", "E-score": 0.0971}
{"Oligonucleotide": "ATGGTGTG", "E-score": -0.0887}
{"data": "Study 3", "target": "Centromere-binding protein 1, full length, His-tagged (CBF1, Saccharomyces cerevisiae, UniProt P17106, residues 1-351)", "method": "competition protein-binding microarray", "molecule type": "double-stranded DNA, one strand shown", "medium": "in vitro", "tested at": "2 µM", "notes": "whole 60-bp probe, lowest competitor level", "together with": "Pho4 competitor, 0.05 µM", "direction": "higher = stronger binding", "all sequences stand within": "… GTCTTGATTCGCTTGACGCTGCTG", "chain of UniProt P17106 (whole entry, looked up)": "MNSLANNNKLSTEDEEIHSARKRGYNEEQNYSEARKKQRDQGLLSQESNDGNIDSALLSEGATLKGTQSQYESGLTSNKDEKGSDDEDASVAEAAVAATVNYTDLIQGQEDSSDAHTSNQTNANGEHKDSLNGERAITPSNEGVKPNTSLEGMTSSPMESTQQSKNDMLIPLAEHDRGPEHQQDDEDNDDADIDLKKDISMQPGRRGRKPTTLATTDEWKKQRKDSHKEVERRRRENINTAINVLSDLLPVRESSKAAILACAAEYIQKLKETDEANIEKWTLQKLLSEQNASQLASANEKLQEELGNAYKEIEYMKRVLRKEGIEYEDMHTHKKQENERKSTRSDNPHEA"}
{"Oligonucleotide": "GTTTGATAGCTGGTTTACGTGCATCTCAAACAGAGA", "fluorescence intensity": "71.3 a.u."}
{"Oligonucleotide": "AGAAAGCACATTTGTCACGTCTCAGGTATGTAGTTC", "fluorescence intensity": "104 a.u."}
{"Oligonucleotide": "AAAGCGGTAATTTGGGGAGTGGGTGCAGATATCTAT", "fluorescence intensity": "75 a.u."}
{"Oligonucleotide": "CGTCCTAGTGATTGTAGTGTGGGTGCCATGAGGAAG", "fluorescence intensity": "83.1 a.u."}
{"Oligonucleotide": "CATCATGCAGGTCCACACGTGATGGGAAGGGCAACG", "fluorescence intensity": "2250 a.u."}
{"Oligonucleotide": "TACTGCTTCCAGGTCCACGTTCTTCTTTTTGCCTCC", "fluorescence intensity": "86 a.u."}
{"Oligonucleotide": "GACCAGCACCGCCGTCACAATGAGTAATGATACCAT", "fluorescence intensity": "59.5 a.u."}
{"Oligonucleotide": "TCGAGCCAGATCCCGCTCGTGGGACTGTTCATTCTG", "fluorescence intensity": "57.1 a.u."}
{"data": "Other studies, line by line"}
{"Molecule": "PhoQ, residues 284 288 289 292 302 303 AGGLSV", "target": "PhoP, residues 12 14 15 18 19 YHFSH (Escherichia coli, UniProt P23836)", "assay": "Sort-seq, refers to: YFP reporter", "test system": "E. coli", "setting": "PhoQ-PhoP variant library, together with: 10 µM Mg2+", "scale": "relative to: high Mg2+ state, higher = stronger signaling", "measurement": "fold induction", "value": 2.44}
{"note": "Repeated from above (study 2):"}
{"Oligonucleotide": "GCTAGACC", "E-score": -0.127}
{"Oligonucleotide": "CGAAAGGC", "E-score": 0.105}
{"Oligonucleotide": "CAAGTGGC", "E-score": -0.0491}
